Experimental data gathered from unrelated publications.
Lines come from different studies, so protocols differ. ± gives the spread as reported.
Sortilin: Sortilin (Homo sapiens, UniProt Q99523)
Sequence of UniProt Q99523 (whole entry, looked up): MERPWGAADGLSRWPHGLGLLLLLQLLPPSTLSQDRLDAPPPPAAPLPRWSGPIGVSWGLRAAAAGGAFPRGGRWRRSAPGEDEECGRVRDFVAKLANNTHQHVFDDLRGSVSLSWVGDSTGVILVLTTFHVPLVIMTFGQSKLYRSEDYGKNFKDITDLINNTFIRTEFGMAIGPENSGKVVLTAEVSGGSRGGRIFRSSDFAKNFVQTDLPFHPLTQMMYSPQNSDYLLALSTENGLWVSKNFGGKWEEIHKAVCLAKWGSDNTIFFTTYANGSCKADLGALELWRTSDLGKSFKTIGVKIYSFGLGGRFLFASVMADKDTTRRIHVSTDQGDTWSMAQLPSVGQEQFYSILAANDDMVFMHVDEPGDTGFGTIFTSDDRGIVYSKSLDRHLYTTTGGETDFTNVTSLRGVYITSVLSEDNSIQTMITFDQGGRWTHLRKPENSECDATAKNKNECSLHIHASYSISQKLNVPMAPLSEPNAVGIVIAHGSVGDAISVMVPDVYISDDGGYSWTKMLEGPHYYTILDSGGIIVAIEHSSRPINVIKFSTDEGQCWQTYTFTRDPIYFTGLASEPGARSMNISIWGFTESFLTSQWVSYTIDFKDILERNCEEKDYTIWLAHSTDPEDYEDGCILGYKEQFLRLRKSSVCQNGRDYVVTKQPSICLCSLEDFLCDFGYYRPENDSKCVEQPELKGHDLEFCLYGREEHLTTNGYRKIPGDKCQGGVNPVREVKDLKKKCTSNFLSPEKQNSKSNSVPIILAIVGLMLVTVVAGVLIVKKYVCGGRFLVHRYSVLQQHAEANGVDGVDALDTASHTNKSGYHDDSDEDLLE
SULT1A1: Sulfotransferase 1A1 (SULT1A1, Homo sapiens, UniProt P50225)
Sequence of UniProt P50225 (whole entry, looked up): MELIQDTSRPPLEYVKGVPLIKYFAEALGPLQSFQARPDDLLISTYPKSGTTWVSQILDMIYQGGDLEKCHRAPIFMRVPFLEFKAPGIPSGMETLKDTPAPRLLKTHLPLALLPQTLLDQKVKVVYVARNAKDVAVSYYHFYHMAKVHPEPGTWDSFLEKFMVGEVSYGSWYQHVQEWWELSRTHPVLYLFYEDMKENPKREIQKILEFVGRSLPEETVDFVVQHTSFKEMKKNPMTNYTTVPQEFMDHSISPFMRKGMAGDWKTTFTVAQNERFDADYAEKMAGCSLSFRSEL
CYP3A4: Cytochrome P450 3A4 (CYP3A4, Homo sapiens, UniProt P08684)
Sequence of UniProt P08684 (whole entry, looked up): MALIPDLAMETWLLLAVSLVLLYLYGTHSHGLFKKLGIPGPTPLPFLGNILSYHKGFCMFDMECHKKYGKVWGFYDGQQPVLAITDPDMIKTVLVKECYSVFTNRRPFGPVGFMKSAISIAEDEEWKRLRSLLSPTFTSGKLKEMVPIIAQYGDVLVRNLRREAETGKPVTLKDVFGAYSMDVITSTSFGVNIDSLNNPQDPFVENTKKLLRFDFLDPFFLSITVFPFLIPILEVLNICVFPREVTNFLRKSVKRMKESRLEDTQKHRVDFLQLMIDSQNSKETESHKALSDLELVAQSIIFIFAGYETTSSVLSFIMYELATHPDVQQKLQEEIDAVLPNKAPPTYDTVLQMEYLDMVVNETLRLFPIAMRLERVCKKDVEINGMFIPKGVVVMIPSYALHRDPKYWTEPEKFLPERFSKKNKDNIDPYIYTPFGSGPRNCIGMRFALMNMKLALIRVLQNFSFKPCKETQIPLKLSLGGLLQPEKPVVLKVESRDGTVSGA
Sequence of UniProt P19099 (whole entry, unmodified, looked up): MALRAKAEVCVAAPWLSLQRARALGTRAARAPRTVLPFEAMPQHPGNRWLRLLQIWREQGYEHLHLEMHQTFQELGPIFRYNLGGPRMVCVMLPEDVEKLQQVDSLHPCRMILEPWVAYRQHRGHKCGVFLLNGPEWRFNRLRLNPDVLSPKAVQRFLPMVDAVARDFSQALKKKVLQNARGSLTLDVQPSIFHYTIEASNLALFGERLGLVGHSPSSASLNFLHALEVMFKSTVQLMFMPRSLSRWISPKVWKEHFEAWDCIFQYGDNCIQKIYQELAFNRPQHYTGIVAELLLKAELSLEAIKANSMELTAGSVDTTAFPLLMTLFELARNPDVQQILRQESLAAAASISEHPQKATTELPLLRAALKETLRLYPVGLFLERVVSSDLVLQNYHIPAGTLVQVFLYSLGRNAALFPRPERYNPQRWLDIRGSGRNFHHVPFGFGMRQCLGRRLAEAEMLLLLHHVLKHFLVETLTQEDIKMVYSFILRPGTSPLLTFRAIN
Sequence of UniProt P22309 (whole entry, looked up): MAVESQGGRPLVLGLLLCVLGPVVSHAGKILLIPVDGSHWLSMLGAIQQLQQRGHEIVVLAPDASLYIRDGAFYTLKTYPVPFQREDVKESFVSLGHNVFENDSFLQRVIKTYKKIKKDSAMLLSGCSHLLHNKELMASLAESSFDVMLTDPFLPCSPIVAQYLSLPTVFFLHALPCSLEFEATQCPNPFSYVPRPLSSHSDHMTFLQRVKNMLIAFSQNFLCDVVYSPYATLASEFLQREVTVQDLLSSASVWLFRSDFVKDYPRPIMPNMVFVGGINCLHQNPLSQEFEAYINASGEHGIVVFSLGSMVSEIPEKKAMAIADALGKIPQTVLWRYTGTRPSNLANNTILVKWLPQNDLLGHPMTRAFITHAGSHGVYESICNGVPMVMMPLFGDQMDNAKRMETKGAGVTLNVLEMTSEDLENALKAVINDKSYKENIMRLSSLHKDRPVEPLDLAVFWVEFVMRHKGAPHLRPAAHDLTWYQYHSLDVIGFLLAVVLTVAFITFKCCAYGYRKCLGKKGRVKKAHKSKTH
Sequence of UniProt P02754 (whole entry, looked up): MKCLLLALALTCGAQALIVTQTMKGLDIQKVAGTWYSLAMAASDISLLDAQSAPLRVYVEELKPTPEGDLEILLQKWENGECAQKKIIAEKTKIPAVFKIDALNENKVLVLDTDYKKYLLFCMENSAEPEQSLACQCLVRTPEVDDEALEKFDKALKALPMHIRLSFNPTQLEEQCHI
Sequence of UniProt P05177 (whole entry, looked up): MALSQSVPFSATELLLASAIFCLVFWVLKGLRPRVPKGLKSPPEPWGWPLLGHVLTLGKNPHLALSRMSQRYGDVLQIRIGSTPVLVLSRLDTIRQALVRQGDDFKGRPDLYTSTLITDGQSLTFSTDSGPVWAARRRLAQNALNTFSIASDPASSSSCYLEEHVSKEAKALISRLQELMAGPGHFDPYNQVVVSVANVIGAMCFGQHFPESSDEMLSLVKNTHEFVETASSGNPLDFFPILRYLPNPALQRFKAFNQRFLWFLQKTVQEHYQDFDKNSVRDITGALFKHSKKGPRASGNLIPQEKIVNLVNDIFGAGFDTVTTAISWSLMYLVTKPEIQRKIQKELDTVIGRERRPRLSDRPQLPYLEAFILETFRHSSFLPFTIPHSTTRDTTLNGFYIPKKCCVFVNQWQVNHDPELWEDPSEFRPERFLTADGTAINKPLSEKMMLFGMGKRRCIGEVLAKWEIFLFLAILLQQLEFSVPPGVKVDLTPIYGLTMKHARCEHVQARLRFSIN
Sequence of UniProt Q12809 (whole entry, looked up): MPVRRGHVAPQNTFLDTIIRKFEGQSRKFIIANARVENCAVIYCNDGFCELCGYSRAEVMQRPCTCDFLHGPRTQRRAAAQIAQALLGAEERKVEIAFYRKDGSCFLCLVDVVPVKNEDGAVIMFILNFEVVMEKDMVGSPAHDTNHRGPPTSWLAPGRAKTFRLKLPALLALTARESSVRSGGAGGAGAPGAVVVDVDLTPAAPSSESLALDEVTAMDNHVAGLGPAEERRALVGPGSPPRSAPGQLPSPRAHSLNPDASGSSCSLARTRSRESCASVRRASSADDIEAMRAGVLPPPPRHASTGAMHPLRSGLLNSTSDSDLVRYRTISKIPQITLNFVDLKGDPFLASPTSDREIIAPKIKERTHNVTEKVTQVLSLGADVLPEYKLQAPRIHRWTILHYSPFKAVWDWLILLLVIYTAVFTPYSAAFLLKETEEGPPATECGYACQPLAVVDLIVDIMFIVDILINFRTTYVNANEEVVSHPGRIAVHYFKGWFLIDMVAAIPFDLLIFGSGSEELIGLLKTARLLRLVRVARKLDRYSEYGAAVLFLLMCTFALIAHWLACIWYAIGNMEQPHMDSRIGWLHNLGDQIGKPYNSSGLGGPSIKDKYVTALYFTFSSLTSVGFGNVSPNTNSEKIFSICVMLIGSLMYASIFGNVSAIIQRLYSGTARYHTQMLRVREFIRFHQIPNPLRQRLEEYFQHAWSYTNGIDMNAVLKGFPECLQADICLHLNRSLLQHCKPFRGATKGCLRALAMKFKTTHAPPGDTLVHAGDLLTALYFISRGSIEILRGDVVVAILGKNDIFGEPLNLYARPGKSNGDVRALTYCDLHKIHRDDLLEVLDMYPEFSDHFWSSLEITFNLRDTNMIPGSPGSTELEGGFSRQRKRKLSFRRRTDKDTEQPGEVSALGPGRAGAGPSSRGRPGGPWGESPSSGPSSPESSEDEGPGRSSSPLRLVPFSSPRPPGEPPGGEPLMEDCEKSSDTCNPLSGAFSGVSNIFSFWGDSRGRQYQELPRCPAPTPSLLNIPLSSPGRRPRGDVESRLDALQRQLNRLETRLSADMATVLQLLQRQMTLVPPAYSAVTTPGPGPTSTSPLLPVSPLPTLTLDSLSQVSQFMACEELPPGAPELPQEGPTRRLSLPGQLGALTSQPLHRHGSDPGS
Sequence of UniProt O75897 (whole entry, looked up): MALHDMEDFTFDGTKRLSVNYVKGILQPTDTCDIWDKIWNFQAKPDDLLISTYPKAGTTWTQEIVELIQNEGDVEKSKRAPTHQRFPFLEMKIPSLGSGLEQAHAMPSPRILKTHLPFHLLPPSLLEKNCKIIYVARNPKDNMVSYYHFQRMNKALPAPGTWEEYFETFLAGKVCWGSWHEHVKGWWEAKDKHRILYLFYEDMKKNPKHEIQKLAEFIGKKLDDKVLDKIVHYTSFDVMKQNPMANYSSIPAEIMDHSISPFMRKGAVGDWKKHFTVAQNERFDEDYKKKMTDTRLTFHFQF

SMILES	target	test	test system	conditions	how to read	measurement	value
Cn1c(=O)c2c(ncn2C)n(C)c1=O	Cytochrome P450 1A2 (CYP1A2, Homo sapiens, UniProt P05177)		human, plasma	oral, 200 mg, day 1, alone, geometric mean		Vd/F	42.5 L
C=C1CN(S(=O)(=O)c2ccc(C)cc2)CCCN(Cc2ccccc2)CCCN(S(=O)(=O)c2ccc(C)cc2)C1.Cl	Sortilin		HEK-293T		reference: CC50 over IC50	selectivity index	> 23
CC(=O)NCCc1c[nH]c2ccc(O)cc12	SULT1A1	substrate, sulfation, purified enzyme		10 µM, 10 min, pH 7.0, 37 °C		specific activity	2.86 ± 0.01 nmol/min/mg
C=C1CN(S(=O)(=O)c2ccc(C)cc2)CCCN(CCc2ccccc2)CCCN(S(=O)(=O)c2ccc(C)cc2)C1.Cl	Sortilin		HEK-293T		reference: CC50 over IC50	selectivity index	> 50
COc1ccc(F)cc1C(=O)NCc1ccc(-c2nn([C@@H](C)C(F)(F)F)c(N)c2C(N)=O)cc1	CYP3A4		human liver microsomes, 0.5 mg/mL	TDI incubation		fu,inc	0.777
COc1cc2c(CCNC(C)=O)c[nH]c2cc1O	SULT1A1	substrate, sulfation, purified enzyme		10 µM, 10 min, pH 7.0, 37 °C		specific activity	25.1 ± 0.53 nmol/min/mg
C[C@]12C[C@H](O)[C@H]3[C@@H](CCC4=CC(=O)CC[C@@]43C)[C@@H]1CC[C@@H]2C(=O)CO	CYP11B2 (Homo sapiens, UniProt P19099, A320V)	substrate		100 µM, phospholipid vesicles		18-hydroxylation coupling efficiency	42.9 ± 4.5%
CCC(=O)NCC[C@@H]1CCc2cc(O)c3c(c21)CCO3	SULT1C4 (Homo sapiens, UniProt O75897)	substrate, sulfation, purified enzyme		10 µM, 10 min, pH 7.0, 37 °C		specific activity	0.27 ± 0.01 nmol/min/mg
Cc1oc2ccccc2c1Cc1cc(I)c(OCC(=O)O)c(I)c1	KCNH2 (Homo sapiens, UniProt Q12809)	ion current, whole-cell patch clamp	HEK293 expressing hERG1	10 µM, K+ 10 mM, at +40 mV before repolarization		outward current block	23 ± 5%
CC(C)=CCc1cc2c(cc1O)O[C@H](c1ccc(O)cc1)CC2=O	UGT1A1 (Homo sapiens, UniProt P22309)	glucuronidation, substrate	recombinant enzyme	pH 7.4		CLint	697 µL/min/mg
CC(C)=CCC/C(C)=C/C=C/C(C)=C/C=C/C(C)=C/C=C/C=C(C)/C=C/C=C(C)/C=C/C=C(\C)CCC=C(C)C	Beta-lactoglobulin (LGB, Bos taurus, UniProt P02754)		protein-carotenoid complex	298 K		zeta potential	-9.5 ± 0.36 mV
Cc1cc(Nc2ncnc3ccc(NC4=NC(C)(CO)CO4)cc23)ccc1Oc1ccn2ncnc2c1 (stereo not drawn)	CYP3A4		human, plasma	oral, 300 mg tucatinib single dose, day 1, tucatinib alone		AUC(0-inf) (arithmetic mean)	535 ng·h/mL
